Published values of several laboratories.
Numbered parts are unrelated; each lists some results of a single study. Changes are numbered by the printed parent chain.

Sample 1
Target: CCNB2, cyclin fold, Cln2 fusion (human)
Method: yeast growth competition, sequencing
Sample: yeast
Notes: strong parent motif
Relative to: not given
Reading: higher = stronger binding
Starting sequence: PKMYT1 docking peptide (human); SFEPRNLLSLFED; partner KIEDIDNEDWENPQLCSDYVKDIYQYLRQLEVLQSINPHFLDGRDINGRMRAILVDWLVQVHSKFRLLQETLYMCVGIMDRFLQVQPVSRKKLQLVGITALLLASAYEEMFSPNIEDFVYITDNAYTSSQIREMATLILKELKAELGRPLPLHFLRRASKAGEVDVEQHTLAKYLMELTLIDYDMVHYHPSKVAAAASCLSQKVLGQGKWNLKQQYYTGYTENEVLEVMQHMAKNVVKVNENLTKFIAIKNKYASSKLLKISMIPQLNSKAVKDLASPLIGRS
`F2D`: “normalised enrichment score” 0.0505.
`E12D` — result for “normalised enrichment score”: 1.09.
For `D13M`, “normalised enrichment score” read 0.916.
Under “normalised enrichment score”, `R5F` is recorded as 0.248.
`R5V`: “normalised enrichment score” 1.06.
`F2H`: “normalised enrichment score” -0.198.
Under “normalised enrichment score”, `L7A` is recorded as -0.468.
For `L7T`, “normalised enrichment score” read -0.626.
Under “normalised enrichment score”, `D13K` is recorded as 0.846.
For `S9Q`, “normalised enrichment score” read 1.06.
`L8P`: “normalised enrichment score” -0.536.
Under “normalised enrichment score”, `S9V` is recorded as 1.07.
`P4I` — result for “normalised enrichment score”: -0.379.
`P4C` — result for “normalised enrichment score”: 1.38.
Under “normalised enrichment score”, `N6C` is recorded as 0.795.
For `E3I`, “normalised enrichment score” read 1.25.
`L8M` — result for “normalised enrichment score”: 0.887.
For `S1L`, “normalised enrichment score” read 1.86.
`L7G` — result for “normalised enrichment score”: -0.527.
`L10G`: “normalised enrichment score” -0.0987.
Under “normalised enrichment score”, `D13H` is recorded as 0.224.
For `S1E`, “normalised enrichment score” read 1.44.
Under “normalised enrichment score”, `L7M` is recorded as -0.58.
`E12M` — result for “normalised enrichment score”: 0.575.
`F2L`: “normalised enrichment score” 2.38.

Sample 2
Substance: PhoQ, residues 284 288 289 292 302 303 NLSRDF
Method: Sort-seq
Refers to: YFP reporter
Sample: E. coli
Notes: PhoQ-PhoP variant library
With: 10 µM Mg2+
Relative to: high Mg2+ state
Reading: higher = stronger signaling
PhoP, residues 12 14 15 18 19 LHTVL (Escherichia coli, UniProt P23836) — fold induction: 0.811.
The fold induction was 9.43 (PhoP, residues 12 14 15 18 19 TQAML (Escherichia coli, UniProt P23836)).
For PhoP, residues 12 14 15 18 19 NQCAL (Escherichia coli, UniProt P23836): fold induction read 16.9.

Sample 3
Target: Sal-like protein 4, full length isoform B (SALL4, Homo sapiens, UniProt Q9UJQ4-2, residues 1-616)
Method: universal PBM
Molecule type: double-stranded DNA, one strand shown
Sample: in vitro
Tested at: not given
Notes: 8-mer, flanks averaged, mean of replicates
Reading: higher = stronger binding
Construct (chain): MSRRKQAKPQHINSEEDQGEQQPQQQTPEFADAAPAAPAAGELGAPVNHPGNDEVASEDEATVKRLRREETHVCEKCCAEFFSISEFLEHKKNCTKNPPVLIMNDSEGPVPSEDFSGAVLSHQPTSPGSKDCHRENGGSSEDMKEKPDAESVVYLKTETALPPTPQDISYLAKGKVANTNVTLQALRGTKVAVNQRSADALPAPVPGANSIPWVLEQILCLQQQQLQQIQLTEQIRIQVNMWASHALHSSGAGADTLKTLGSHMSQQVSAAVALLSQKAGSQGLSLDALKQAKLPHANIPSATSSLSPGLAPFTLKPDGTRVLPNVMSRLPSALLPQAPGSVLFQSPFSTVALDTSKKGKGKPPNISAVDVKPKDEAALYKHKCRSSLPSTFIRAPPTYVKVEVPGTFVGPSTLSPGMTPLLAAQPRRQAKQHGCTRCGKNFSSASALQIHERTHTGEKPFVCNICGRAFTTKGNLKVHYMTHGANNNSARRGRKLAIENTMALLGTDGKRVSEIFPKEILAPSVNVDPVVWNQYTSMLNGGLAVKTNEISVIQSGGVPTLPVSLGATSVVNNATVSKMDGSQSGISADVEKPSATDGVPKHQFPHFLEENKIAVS
For `ATTTGTCG`, the E-score was 0.14.
`AGGCAAGC` has an E-score of -0.063.
For `ATCCGGCA`, the E-score was -0.123.
With `GCGATAAA` the E-score was 0.0944.
For `ATAGTAAG`, the E-score was 0.184.
The E-score of `CGACTCCG` is reported as -0.375.
With `TAAGTAGA` the E-score was 0.169.
`CACTACCA` has an E-score of 0.00665.
For `GTGTGAAC`, the E-score was -0.0439.
`ATCCGCAC` gave an E-score of -0.0762.
`CGGTTACG` has an E-score of -0.213.
For `ACCTCGTG`, the E-score was 0.036.
For `GCGCGAGC`, the E-score was -0.325.
For `TACAAAGA`, the E-score was 0.289.
`GCCATTCA` has an E-score of -0.00469.
The E-score of `CGAGATGA` is reported as -0.102.
`CAAGCCCC` has an E-score of -0.38.
For `AGATGTAC`, the E-score was 0.106.
For `ATCACGCA`, the E-score was -0.0155.
For `ATCGCATC`, the E-score was -0.144.
With `CGAGAGAC` the E-score was -0.162.
The E-score of `GGCTAGCC` is reported as -0.325.
With `AGGAACCC` the E-score was -0.266.
With `AGGGATCA` the E-score was 0.0111.
The E-score of `AGGCGGAG` is reported as -0.145.

Sample 4
Target: RNA binding protein fox-1 homolog 2, RRM domain, GST-SBP tag (RBFOX2, Homo sapiens, UniProt O43251-10, residues 100-194)
Method: RNA Bind-n-Seq
Molecule type: RNA
Sample: in vitro
Tested at: 365 nM
Notes: natural RNA segment, single round, ends assumed
Relative to: no-protein control
Reading: higher = stronger binding
All sequences stand within: GGGAGUUCUACAGUCCGACGAUC … UGGAAUUCUCGGGUGCCAA
Construct (chain): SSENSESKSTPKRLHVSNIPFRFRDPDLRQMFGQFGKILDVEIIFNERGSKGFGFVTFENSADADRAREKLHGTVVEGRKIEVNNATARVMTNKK
For `GUCCAGGGAAUGGAGAAUGGUGUUCCAUUGCCUCUUUUCACAUUUUUUUUCUUUUUCUUUUUUUUUUCUGUUGAAGAUUAACACUAAUUAUCACGUCUGACAAAUGUGUA`, “RBNS enrichment (R)” read 1.32.
Under “RBNS enrichment (R)”, `GCAUUAUUCUUCAGAAGGGGACCUGUUUUCUUCAAGGGAAGAAACACUCUUAUUCCCAAACUACAGAAUAAUGUGUUAAACAUGCUAAAUAGUUCUAUCAGGAAAACAAA` is recorded as 0.514.
For `AGUUGUGUGGAGGGAUGGAAAGUGGGUCAGUGGAGAAGGGAUUCAGAAAAUGACACAUUCUUCCCCAUUUCUAUAGUGUAUGUGGUUUAUUUUGAGUCAUGUCUCAUCUG`, “RBNS enrichment (R)” read 0.533.
For `UGGAAAUACAAGCCAUAAAAUUCAAAAGGUGUCAAAAGACCUUGGCUUGUUUGGGGGUUUGUUCCCAUCCAUGAGUAGAGUUGACAAGAAGAAUUUAAACGGGAGUCUGA`, “RBNS enrichment (R)” read 0.463.
Under “RBNS enrichment (R)”, `CCCCCGCUCCAUAGUUUACAAUGCAAAUCUGUCUCAAGAUCUUCACUUCGCUGCUGCUGAGAGCAGGAGAAUUUUCUGCAGCUGUUUCAAAGUUGUGGCCUGGCCUUGAA` is recorded as 0.602.
For `UCCAGCUAUUGAAAGCAACAACCUAAUGGGUCCAUUUGGUCCCCCUGGGUCAUUUUAACAAGGGUGAGGUAUUUAGCAUCAAAUAAAAAGAUUGUAGUCAGCAUUUCAUU`, “RBNS enrichment (R)” read 1.39.
Under “RBNS enrichment (R)”, `CCCUAAUCUAUGGUCGGGAGACAGCAUCAGGGUUAAGAAGACUUUUUUUUUUUUUUUUUAAACUAGGAGAACCAAAUCUGGAAGCCAAAAUGUAGGCUUAGUUUGUGUGU` is recorded as 1.49.
`CUCUCUGUGAAUACCUACCCCCUUCUGGCCACGGUGCCAUACCUGUUUCUUCCUGUGACUGUAGAGACAGUUCUAGACCUUUGUGAUAGAACUAAAAUGCUCUCUGUACU`: “RBNS enrichment (R)” 0.268.
`CAACCAAGAAGGCUCAGCUGUCAUCACUUCAGAGAGGAAGGAAGAAUCUUCACUUAGCCUCAGACUUCAGGUGCAUUGACCCAUCCAUUAGUAAAGCUGCUUUGAACCAU`: “RBNS enrichment (R)” 0.456.
Under “RBNS enrichment (R)”, `UUGGCGCCUUUGCAUCUAAUUCAUUGGUUCUAGACGAACUAUUCUGUCAGUUUUUACCACCUAGUAGGCAAUACCUGUUUUGUCUAAUAUUCAAAGUGCAAUUCGCGUCU` is recorded as 0.492.
`AACCCCUUUUAAAAUCUAAUGUCUGGGCUUUGAGUAUUAGCUCAUUUAGGGUGGACAAAUGCAUUACUGUUUUCAAACUGCUCACAUUUAUUCAGUAUUUCUCCAAGUUG`: “RBNS enrichment (R)” 0.721.
`UACUUCCUGGAGGCAAAAUCCUUGGAUUUACUAACAUGAUGAUUUACCUUUUCUUCACCGUUGUCGUUACAUUGUUAGAAAAGCAACAGGAAAAAAUCCAAUUCAUUUGA`: “RBNS enrichment (R)” 0.306.

Sample 5
Target: ABI1, truncated, D143A, DHFR fusion (Arabidopsis thaliana)
Method: DHFR PCA, deep sequencing
Sample: yeast
Notes: methotrexate growth selection, single substitutions
With: (+)-ABA 0.11 µM
Relative to: wild-type fitted maximum
Reading: higher = stronger binding
Starting sequence: PYL1, truncated, DHFR fusion (Arabidopsis thaliana); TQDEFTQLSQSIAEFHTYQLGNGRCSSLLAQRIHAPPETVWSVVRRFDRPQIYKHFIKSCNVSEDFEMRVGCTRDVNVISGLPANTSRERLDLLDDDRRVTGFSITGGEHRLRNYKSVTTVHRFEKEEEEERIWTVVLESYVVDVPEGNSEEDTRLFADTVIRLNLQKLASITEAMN
Under “relative binding score”, `N114F` is recorded as -7.41%.
`R111K` — result for “relative binding score”: 11.6%.
`V78H` — result for “relative binding score”: 55.2%.
For `P37I`, “relative binding score” read -0.407%.
`S80Q`: “relative binding score” 1.42%.
`P50E` — result for “relative binding score”: 3.33%.
Under “relative binding score”, `I12H` is recorded as 3.11%.
`G107S`: “relative binding score” 33.1%.
For `L8M`, “relative binding score” read 1.31%.
For `V76D`, “relative binding score” read 2.23%.
`Y141G`: “relative binding score” -3.22%.
`I52C`: “relative binding score” 15.7%.
`E64N` — result for “relative binding score”: 29.2%.
For `A175T`, “relative binding score” read 23.5%.
`H55I` — result for “relative binding score”: 39%.
For `Q2V`, “relative binding score” read 62%.

Sample 6
Target: Histone acetyltransferase KAT6A, winged helix 2, GST fusion (KAT6A, Homo sapiens, UniProt Q92794, residues 85-181)
Method: protein binding microarray
Molecule type: double-stranded DNA, one strand shown
Sample: in vitro
Tested at: not given
Notes: 8-mer, flanks averaged, mean of 2 arrays, mostly near background
Relative to: not given
Reading: higher = stronger binding
Residues (chain): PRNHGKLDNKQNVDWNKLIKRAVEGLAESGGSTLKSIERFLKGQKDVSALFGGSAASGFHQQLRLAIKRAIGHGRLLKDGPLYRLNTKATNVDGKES
The E-score of `AGTTCTGG` is reported as 0.126.
With `AGGGCCAT` the E-score was -0.0616.
The E-score of `CAGCTTAC` is reported as -0.0261.
`AGAGCAAT` has an E-score of 0.139.
`AATGTTAG` has an E-score of -0.243.
The E-score of `AGTATAGA` is reported as 0.0124.
`ACGCCAGC` gave an E-score of 0.0805.
The E-score of `CACTTGTC` is reported as -0.153.
`ACTATACA` has an E-score of 0.0137.
With `CCGGGATA` the E-score was 0.0121.
`CCGTTGCA` gave an E-score of -0.0524.
The E-score of `AGGCGTAG` is reported as -0.0421.
With `AATCTTAC` the E-score was -0.0761.
The E-score of `AACACCCA` is reported as -0.0969.
The E-score of `ATGGAGCG` is reported as 0.129.
`CGTTATCA` gave an E-score of -0.0143.
The E-score of `AAGTCCCA` is reported as -0.0881.

Excerpt of the above (sample 1):
Under “normalised enrichment score”, `D13K` is recorded as 0.846.
For `S1L`, “normalised enrichment score” read 1.86.
`E12M` — result for “normalised enrichment score”: 0.575.
For `L7T`, “normalised enrichment score” read -0.626.
Under “normalised enrichment score”, `D13H` is recorded as 0.224.
`L7G` — result for “normalised enrichment score”: -0.527.
`L8P`: “normalised enrichment score” -0.536.
For `S9Q`, “normalised enrichment score” read 1.06.
`F2L`: “normalised enrichment score” 2.38.
`R5V`: “normalised enrichment score” 1.06.
Under “normalised enrichment score”, `L7A` is recorded as -0.468.
